Measured values gathered from unrelated publications.
Values joined by “and” are separate records of one study, mostly repeats; a detail may differ. ± marks the error that the study gave.

With `C=CC(=O)Nc1cc(Nc2nccc(-c3cn(C)c4ccccc34)n2)c(OC)cc1N(C)CCN(C)C` the recovery was 103% (storage stability; human plasma; 24 h, -80 °C, medium QC level).
For `C=CC(=O)N1CCC([C@@H]2CCNc3c(C(N)=O)c(-c4ccc(Oc5ccccc5)cc4)nn32)CC1`, “stability relative error” read 5.7% (rat plasma; 800 ng/mL, 4 h, 10 °C, autosampler; baseline: nominal concentration).
`NC1(C(=O)N[C@@H](CCO)c2ccc(Cl)cc2)CCN(c2nc[nH]c3nccc2-3)CC1`: “incidence of Dyspepsia” 0% (metastatic CRPC patients; 400 mg b.i.d., grade 3 to 4, treatment-related, with: enzalutamide 160 mg daily).
`N#Cc1ccc([C@@H]2COC[C@@H](C3CCCC3)N2)cc1` gave a solubility of over 750 µM (shake-flask, LC-HRMS; aqueous buffer; 16 h, pH 6.8).
With `O=c1[nH]c(=O)n([C@H]2C[C@H](O)[C@@H](CO)O2)cc1CCC[18F]` the biodistribution was 0.39 ± 0.12 %ID/g (male CD-1 nu/nu mice, RG2 tumour, liver; intravenous, dose not given, 2 h).
`CCCC1CCC(c2ccc(-c3ccc(F)c(F)c3)cc2)CC1` (centres unmarked) has a placental accumulation of 13.5 ± 17.6 ng/g (Sprague-Dawley rat, female, placenta; 1000 ng/mL in perfusate, 50 (unit not given), middle dose, mixture of 21 LCMs).
`CN1CCN(c2cccc3c2CCN(C(=O)/C=C/c2c(-n4cnnn4)ccc(Cl)c2F)[C@@H]3C(=O)Nc2ccc(C(=O)O)cc2)C(=O)C1`: “discontinuations due to adverse events” 0% (healthy human subjects; intravenous infusion, 20 mg/h, 5 days).
`O=C(O)CCC(=O)O.[2H]C([2H])([2H])Oc1cc(C)c2[nH]ccc2c1CN1CC[C@@H](C2CC2)C[C@H]1c1ccc(C(=O)O)cc1`: “subjects with TEAE Diarrhea” 0% (multiple ascending dose; healthy Chinese subjects; 300 mg once daily).
`CC(C)C[C@H](NC(=O)[C@@H](Cc1c[nH]c2ccccc12)NC(=O)[C@H](Cc1ccc(O)cc1)NC(=O)[C@H](CO)NC(=O)[C@H](Cc1c[nH]c2ccccc12)NC(=O)[C@H](Cc1c[nH]cn1)NC(=O)[C@@H]1CCC(=O)N1)C(=O)N[C@@H](CCCNC(=N)N)C(=O)N1CCC[C@H]1C(=O)NCC(N)=O`: “patients, drug-related skin TEAEs” 25% (Chinese CPP children, boys; intramuscular, 22.5 mg, 12 months, day 1, month 6).
`O=C1NCCc2nc(OCc3cccc(F)c3)ccc21`: “Irwin test score” 0 (refers to: Catalepsy; Sprague-Dawley rat male; oral, 100 mg/kg, 0 min; baseline: baseline, direction not given).
For `N#Cc1ccc2c(c1)[C@H]1CCCN(C(=O)c3ccc4[nH]cnc4c3)[C@H]1C2`, the DHEA-S level was 4.5 µmol/L (human, female; 160 mg, end of trial).
For `O=c1[nH]c(=O)n([C@@H]2O[C@H](CO)[C@@H](O)[C@@H]2F)cc1CCCCC[18F]`, the biodistribution was 0.1 ± 0.03 %ID/g (nude mice, RG2 tumour, muscle; intravenous, dose not given, 2 h).
`CCOc1c([C@H](C)n2nc(C)c3c(N)ncnc32)cc(Cl)c(F)c1[C@@H]1CNC(=O)C1` has a patients of 100% (refers to: QTcF ≤450 ms; previously treated B-cell malignancy; oral, 15 mg once daily, baseline QTcF ≤450 ms).
`CN(C)C(=N)N=C(N)N` — result for “subjects with adverse event”: 8.3% (refers to: Dizziness; healthy human; oral, dose not given).
`C[C@H]1COC2=C1C(=O)C(=O)c1c2ccc2c1CCCC2(C)C` gave an equilibrium solubility of 10 µg/mL (saline; 24 h, 25 °C).
Under “total radioactivity recovered”, `N#Cc1cccc(-c2ccc3ncc(-c4cc(F)cc(F)c4)c(N4CCC(N)CC4)c3c2)c1O` is recorded as 84.3% (healthy male, faeces; oral, 20 mg, 120 h, profiled samples; baseline: dose).
The Stokes shift of `COC(=O)c1ccccc1-c1c2ccc(=O)cc-2oc2c1ccc1cccc(N(C)C)c12` is reported as 100 nm (aqueous HCl 10% DMSO; pH 1.9).
Under “AUC(0-t), geometric mean”, `N#CN1C[C@H](n2nc(-c3ccc(Oc4ccc(Cl)cn4)cc3)c(C(N)=O)c2N)CCC12CC2` is recorded as 18100 ng·h/mL (human, fed, plasma; oral, 600 mg, i=11).
`CCc1cc(C(=O)NC)c2nccc(N3CCc4c(cc(Cn5ccnc5)cc4-c4cn(C)nc4C(F)(F)F)C3=O)c2c1`: “serum DBIL level” 0.8 ± 0.06 µmol/L (Sprague Dawley rats; oral, 100 mg/kg twice daily, 7 days).
`CCC(CC)[C@H]1COC[C@@H](c2ccc(C(C)(C)C)cc2)N1` has a solubility of under 4 µM (shake-flask, LC-HRMS; aqueous buffer; 16 h, pH 6.8).
For `Cc1cc(Nc2ncnc3ccc(NC4=NC(C)(CO)CO4)cc23)ccc1Oc1ccn2ncnc2c1` (centres unmarked), “Cmax (arithmetic mean)” read 48.3 ng/mL (human, plasma; oral, 300 mg tucatinib single dose, day 1, tucatinib alone).
With `CN[C@H](CC(C)C)C(=O)N[C@H]1C(=O)N[C@@H](CC(N)=O)C(=O)N[C@H]2C(=O)N[C@H]3C(=O)N[C@H](C(=O)N[C@H](C(=O)O)c4cc(O)cc(O)c4-c4cc3ccc4O)[C@H](O)c3ccc(c(Cl)c3)Oc3cc2cc(c3O[C@@H]2O[C@H](CO)[C@@H](O)[C@H](O)[C@H]2O[C@H]2C[C@](C)(N)[C@H](O)[C@H](C)O2)Oc2ccc(cc2Cl)[C@H]1O` the concentration was 4.3 ± 0.7 µM (E-AB sensor; male C57BL/6J mice, cortex; intravenous, 35 mg/kg, 4 h).
The linearity index of `C[C@@H](Oc1ccc(S(C)(=O)=O)cc1C(=O)N1C[C@@H]2C[C@]2(c2cc(C(F)(F)F)on2)C1)C(F)(F)F` is reported as 1.02 (healthy young humans, plasma; oral, 10 mg once daily; baseline: AUCtau,ss over AUC(0-inf)).
`Cc1ccc([C@@H]2O[C@H](CO)[C@@H](O)[C@H](O)[C@H]2O)cc1Cc1ccc(-c2ccc(F)cc2)s1` — result for “urinary magnesium excretion change”: -7.11 mg (Japanese type 2 diabetes patients; 200 mg, day 6, 24 h urine collection; baseline: baseline).
For `Cc1c(-c2ccc(N3CCc4cccc(C(=O)Nc5nc6ccccc6s5)c4C3)nc2C(=O)O)cnn1CC12CC3(C)CC(C)(C1)CC(OCCNCC[C@H](O)CO)(C3)C2`, “mean arterial pressure change” read -2 mmHg (beagle dog, anaesthetised; intravenous infusion, 0.1 mg/kg/min, 10 min; baseline: baseline).
The plasma concentration of `CCN1CCN(Cc2ccc(NC(=O)c3ccc(C)c(NC(=O)c4cncc(-c5cccs5)c4)c3)cc2C(F)(F)F)CC1` is reported as 399 ng/mL and 620 ng/mL and 586 ng/mL (LC-MS/MS; C57BL/6 mouse, plasma; intraperitoneal, 30 mg/kg single dose, 1 h).
`CNCCOC12CC3(C)CC(C)(CC(Cn4ncc(-c5ccc(N6CCc7cccc(C(=O)Nc8nc9ccccc9s8)c7C6)nc5C(=O)O)c4C)(C3)C1)C2`: “QRS duration change” 1 ms (beagle dog, male, anaesthetised; intravenous bolus, 0.03 mg/kg, 120 min; baseline: baseline).
`Cc1cc(-c2nnc(N)nc2-c2ccc(F)cc2)cc(Cl)n1`: “incidence of AE, immune-mediated, treatment-related” 5.9% (refers to: rash, all grades; post-IO NSCLC patients; oral, 100 mg once daily).
`CC(C(=O)NCC(=O)NCC(CNC(=O)CNC(=O)C(C)N1CCN(CC(=O)[O-])CCN(CC(=O)[O-])CCN(CC(=O)[O-])CC1)(CNC(=O)CNC(=O)C(C)N1CCN(CC(=O)[O-])CCN(CC(=O)[O-])CCN(CC(=O)[O-])CC1)CNC(=O)CNC(=O)C(C)N1CCN(CC(=O)[O-])CCN(CC(=O)[O-])CCN(CC(=O)[O-])CC1)N1CCN(CC(=O)[O-])CCN(CC(=O)[O-])CCN(CC(=O)[O-])CC1.[Gd+3].[Gd+3].[Gd+3].[Gd+3]` (centres unmarked) — result for “cumulative urinary excretion”: 97.2% and 97% (ICP-MS; cynomolgus monkey; dose not given, 1 d 24 h, mass balance group; baseline: dose).
With `CCOCc1nc(O)c(-c2nnc(Cc3ccc(Cl)cn3)o2)c(O)c1-c1c(OC)cccc1OC` the plasma concentration was 9.66 µM (rat, anaesthetised, cannulated, plasma; intravenous infusion, 100 µg/kg/min, 20 min after infusion stop, washout).
`CCCCOC(=O)N1CCN(C(=O)[C@H](CP(=O)(O)O)NC(=O)c2cc(N3CC[C@H](OC)C3)nc(-c3ccccc3)n2)CC1`: “change from baseline” 0.2 ± 1.9 mmol/L (refers to: Sodium; human, blood; 8 mg, 24 h).
`[18F]c1ccc(-c2ccc3c(c2)[nH]c2ccncc23)cn1` gave an SUV of 0.611 ± 0.129 (microPET/CT imaging; APP/PS1 mouse, AD model, brain; intravenous, 20 min).
`COc1cc(Nc2ncc3c(n2)-c2ccc(Cl)cc2C(c2c(F)cccc2OC)=NC3)ccc1C(=O)O` — result for “patients with adverse event”: 21% (refers to: Hypercalcemia, all grades; cancer patients, phase 1/2; oral, dose not given, with: pembrolizumab).
For `CNC(=O)c1ccc(-c2cnc3ncc(Cc4ccc5ncccc5c4)n3n2)cc1F`, “decreased appetite incidence (all grades)” read 11% (CTCAE v4.0, any causality; human gastric cancer patients; oral, 600 mg twice daily, expansion cohort at RP2D).
For `O=c1c2cc(Cl)c(CO)cc2[nH]c(=S)n1Cc1cccnc1`, the AUC(0-t) was 62 ng·h/mL (mouse; oral, 10 mg/kg).
With `C[C@@H](NC(=O)N1C(=O)[C@H](Cc2ccnc(N)c2)[C@H]1C(=O)O)C1CCCCC1` the Css was 937 ng/mL (UPLC-MS/MS; healthy adult Chinese volunteers, plasma; continuous intravenous infusion, 0.3 mg/kg/h, day 1 of 5-day infusion, geometric mean).
`C[C@H]1CN(C(=O)CC#N)[C@]12CCN(c1ncnc3[nH]ccc13)C2` — result for “participants withdrawn due to AEs”: 0% (human; oral, dose not given, all compound groups).
For `Cc1c(C(=O)O)ccc2c3n(nc12)[C@@H]1[C@H](C3)N(CC2CC2)[C@@]2(C(=O)Nc3cc(Cl)ccc32)[C@H]1c1cccc(Cl)c1F`, “decreased weight incidence” read 0% (human patients phase Ia; oral, dose not given, grade ≥3, all patients).
Under “heart rate change”, `CCN1/C(=C/C(C)=O)Sc2ccc(F)cc21` is recorded as 87.3 ± 20.6% (cynomolgus monkey; oral, 30 mg/kg, 6 h post-dose; baseline: pre-dose).
For `COc1cccc(-c2n[nH]c(SCc3ccccn3)n2)c1OC`, the Cmax was 78300 ng/mL (Sprague-Dawley rat, male, plasma; oral gavage, 100 mg/kg).
`O=C(O)c1cccc(C(=O)O)c1` — result for “apparent dissolution enthalpy”: 2.94 kcal/mol (betaine/glycerol DES-water; DES mass fraction 0.50).

For quick reference, copied from above:
For `Cc1c(-c2ccc(N3CCc4cccc(C(=O)Nc5nc6ccccc6s5)c4C3)nc2C(=O)O)cnn1CC12CC3(C)CC(C)(C1)CC(OCCNCC[C@H](O)CO)(C3)C2`, “mean arterial pressure change” read -2 mmHg (beagle dog, anaesthetised; intravenous infusion, 0.1 mg/kg/min, 10 min; baseline: baseline).
`C[C@H]1COC2=C1C(=O)C(=O)c1c2ccc2c1CCCC2(C)C` gave an equilibrium solubility of 10 µg/mL (saline; 24 h, 25 °C).
The plasma concentration of `CCN1CCN(Cc2ccc(NC(=O)c3ccc(C)c(NC(=O)c4cncc(-c5cccs5)c4)c3)cc2C(F)(F)F)CC1` is reported as 399 ng/mL and 620 ng/mL and 586 ng/mL (LC-MS/MS; C57BL/6 mouse, plasma; intraperitoneal, 30 mg/kg single dose, 1 h).
With `C=CC(=O)Nc1cc(Nc2nccc(-c3cn(C)c4ccccc34)n2)c(OC)cc1N(C)CCN(C)C` the recovery was 103% (storage stability; human plasma; 24 h, -80 °C, medium QC level).
`[18F]c1ccc(-c2ccc3c(c2)[nH]c2ccncc23)cn1` gave an SUV of 0.611 ± 0.129 (microPET/CT imaging; APP/PS1 mouse, AD model, brain; intravenous, 20 min).
`O=C(O)CCC(=O)O.[2H]C([2H])([2H])Oc1cc(C)c2[nH]ccc2c1CN1CC[C@@H](C2CC2)C[C@H]1c1ccc(C(=O)O)cc1`: “subjects with TEAE Diarrhea” 0% (multiple ascending dose; healthy Chinese subjects; 300 mg once daily).
